Assay results from different studies.
A part holds a random share of what one study measured.
Sequence of UniProt Q13523 (whole entry, looked up): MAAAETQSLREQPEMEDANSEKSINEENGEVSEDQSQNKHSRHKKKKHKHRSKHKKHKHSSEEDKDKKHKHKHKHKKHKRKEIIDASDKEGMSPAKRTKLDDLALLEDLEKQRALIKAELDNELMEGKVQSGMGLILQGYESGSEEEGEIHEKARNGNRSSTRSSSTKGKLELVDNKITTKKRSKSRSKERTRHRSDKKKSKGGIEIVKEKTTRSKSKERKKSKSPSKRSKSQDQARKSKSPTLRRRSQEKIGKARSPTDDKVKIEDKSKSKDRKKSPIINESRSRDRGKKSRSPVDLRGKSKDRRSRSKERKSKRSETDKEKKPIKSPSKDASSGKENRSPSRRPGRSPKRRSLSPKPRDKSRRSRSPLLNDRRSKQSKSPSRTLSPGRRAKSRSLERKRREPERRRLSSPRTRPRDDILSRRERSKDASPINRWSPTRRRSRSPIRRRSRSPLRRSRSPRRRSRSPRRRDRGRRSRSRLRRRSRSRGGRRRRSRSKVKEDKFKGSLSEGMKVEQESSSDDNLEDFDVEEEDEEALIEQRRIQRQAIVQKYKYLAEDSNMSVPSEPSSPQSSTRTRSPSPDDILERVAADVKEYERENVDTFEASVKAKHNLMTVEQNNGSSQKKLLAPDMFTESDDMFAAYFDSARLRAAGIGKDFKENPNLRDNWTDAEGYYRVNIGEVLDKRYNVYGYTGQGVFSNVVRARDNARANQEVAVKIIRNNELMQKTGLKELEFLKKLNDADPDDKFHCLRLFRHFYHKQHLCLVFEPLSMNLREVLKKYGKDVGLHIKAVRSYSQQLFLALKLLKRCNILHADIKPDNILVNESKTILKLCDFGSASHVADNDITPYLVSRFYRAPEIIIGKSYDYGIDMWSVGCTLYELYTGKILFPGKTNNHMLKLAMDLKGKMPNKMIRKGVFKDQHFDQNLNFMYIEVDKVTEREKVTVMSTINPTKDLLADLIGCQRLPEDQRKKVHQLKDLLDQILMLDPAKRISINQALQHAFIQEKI
Sequence of UniProt Q86YV6 (whole entry, looked up): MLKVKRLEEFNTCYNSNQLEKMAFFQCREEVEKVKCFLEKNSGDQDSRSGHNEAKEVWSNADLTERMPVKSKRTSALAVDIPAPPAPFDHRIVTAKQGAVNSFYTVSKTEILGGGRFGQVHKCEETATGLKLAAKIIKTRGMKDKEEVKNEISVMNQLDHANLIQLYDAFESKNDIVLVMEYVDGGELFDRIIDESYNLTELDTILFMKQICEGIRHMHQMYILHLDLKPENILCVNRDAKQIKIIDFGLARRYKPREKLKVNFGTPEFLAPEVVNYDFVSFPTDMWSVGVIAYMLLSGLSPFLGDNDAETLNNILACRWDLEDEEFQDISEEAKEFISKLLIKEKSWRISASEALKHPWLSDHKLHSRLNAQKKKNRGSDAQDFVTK
Sequence of UniProt O94804 (whole entry, looked up): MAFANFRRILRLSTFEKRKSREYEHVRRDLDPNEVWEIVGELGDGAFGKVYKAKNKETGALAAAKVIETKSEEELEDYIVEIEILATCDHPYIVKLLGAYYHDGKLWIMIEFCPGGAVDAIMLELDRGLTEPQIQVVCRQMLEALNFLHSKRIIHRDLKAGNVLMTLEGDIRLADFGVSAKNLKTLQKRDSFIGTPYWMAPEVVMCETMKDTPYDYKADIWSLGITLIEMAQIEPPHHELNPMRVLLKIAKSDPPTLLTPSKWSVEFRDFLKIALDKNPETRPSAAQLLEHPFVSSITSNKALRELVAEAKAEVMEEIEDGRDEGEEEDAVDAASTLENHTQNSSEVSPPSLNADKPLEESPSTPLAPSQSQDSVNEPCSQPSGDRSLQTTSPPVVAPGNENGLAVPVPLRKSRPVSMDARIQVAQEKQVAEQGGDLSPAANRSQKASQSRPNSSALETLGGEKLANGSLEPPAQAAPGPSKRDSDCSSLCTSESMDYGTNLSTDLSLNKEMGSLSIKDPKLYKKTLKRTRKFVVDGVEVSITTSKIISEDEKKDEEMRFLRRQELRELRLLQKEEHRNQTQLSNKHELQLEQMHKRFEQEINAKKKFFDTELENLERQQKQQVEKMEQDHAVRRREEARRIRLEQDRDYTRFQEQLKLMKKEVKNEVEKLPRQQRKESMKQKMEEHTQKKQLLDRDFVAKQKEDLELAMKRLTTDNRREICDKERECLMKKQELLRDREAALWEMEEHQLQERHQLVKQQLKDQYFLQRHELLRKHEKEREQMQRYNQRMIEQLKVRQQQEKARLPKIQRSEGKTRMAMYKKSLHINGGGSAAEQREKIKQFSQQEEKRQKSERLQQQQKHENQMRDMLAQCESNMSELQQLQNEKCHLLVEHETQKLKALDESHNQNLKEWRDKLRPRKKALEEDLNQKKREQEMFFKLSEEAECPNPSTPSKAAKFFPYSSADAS
Sequence of UniProt P49759 (whole entry, looked up): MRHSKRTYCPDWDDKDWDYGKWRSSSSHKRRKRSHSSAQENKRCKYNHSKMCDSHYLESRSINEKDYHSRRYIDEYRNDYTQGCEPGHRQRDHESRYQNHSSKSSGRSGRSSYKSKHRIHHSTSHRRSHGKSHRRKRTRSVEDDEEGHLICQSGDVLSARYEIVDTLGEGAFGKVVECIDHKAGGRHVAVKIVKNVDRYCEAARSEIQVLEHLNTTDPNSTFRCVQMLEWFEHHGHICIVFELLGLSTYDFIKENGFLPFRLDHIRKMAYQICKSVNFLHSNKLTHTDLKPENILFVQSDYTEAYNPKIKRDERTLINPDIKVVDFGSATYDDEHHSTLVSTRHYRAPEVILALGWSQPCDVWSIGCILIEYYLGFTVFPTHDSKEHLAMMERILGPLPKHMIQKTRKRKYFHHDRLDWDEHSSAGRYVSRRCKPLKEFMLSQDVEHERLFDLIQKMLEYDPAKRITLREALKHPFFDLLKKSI
Sequence of UniProt Q5TCX8 (whole entry, looked up): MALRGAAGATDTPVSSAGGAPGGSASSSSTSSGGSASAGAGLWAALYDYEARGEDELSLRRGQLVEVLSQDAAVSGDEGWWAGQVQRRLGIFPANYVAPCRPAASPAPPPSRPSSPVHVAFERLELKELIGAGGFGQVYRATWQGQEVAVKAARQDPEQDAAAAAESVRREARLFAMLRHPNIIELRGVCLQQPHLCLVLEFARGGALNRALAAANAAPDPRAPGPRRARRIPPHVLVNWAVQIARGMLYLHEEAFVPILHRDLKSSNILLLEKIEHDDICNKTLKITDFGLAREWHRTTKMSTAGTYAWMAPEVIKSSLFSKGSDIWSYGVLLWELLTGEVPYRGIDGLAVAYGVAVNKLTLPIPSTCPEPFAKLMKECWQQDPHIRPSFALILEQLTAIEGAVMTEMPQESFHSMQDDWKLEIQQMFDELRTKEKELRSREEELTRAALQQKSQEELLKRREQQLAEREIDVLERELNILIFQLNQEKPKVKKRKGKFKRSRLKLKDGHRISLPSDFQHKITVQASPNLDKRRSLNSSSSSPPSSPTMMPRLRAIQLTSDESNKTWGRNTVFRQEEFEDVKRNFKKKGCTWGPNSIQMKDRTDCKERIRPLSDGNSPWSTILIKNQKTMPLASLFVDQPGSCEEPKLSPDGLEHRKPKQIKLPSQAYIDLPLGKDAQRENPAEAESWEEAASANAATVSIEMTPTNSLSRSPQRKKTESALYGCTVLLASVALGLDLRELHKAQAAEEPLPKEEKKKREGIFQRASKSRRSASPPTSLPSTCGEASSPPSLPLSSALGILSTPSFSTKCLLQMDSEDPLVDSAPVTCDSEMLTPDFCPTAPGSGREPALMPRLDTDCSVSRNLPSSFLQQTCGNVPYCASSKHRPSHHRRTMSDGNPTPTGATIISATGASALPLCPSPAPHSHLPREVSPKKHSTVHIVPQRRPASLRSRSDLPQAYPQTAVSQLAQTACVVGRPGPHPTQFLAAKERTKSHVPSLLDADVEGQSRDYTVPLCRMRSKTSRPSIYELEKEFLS
Sequence of UniProt Q16539 (whole entry, looked up): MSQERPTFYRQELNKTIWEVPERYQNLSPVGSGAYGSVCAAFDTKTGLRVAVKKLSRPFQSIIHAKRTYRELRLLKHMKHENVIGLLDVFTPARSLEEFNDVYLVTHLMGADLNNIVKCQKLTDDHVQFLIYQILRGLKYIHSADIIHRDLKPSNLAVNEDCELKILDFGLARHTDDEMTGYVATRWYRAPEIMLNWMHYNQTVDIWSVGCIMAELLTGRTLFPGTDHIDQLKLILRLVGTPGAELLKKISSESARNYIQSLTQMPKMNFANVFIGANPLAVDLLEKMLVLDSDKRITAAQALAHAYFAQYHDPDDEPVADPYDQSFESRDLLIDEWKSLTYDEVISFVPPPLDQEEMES

Sample 1 — effect on: enzyme activity; mode: inhibitor; concentration: 10 µM
Target: Calcium/calmodulin-dependent protein kinase type II subunit alpha (CAMK2A, Homo sapiens, UniProt Q9UQM7)
Sequence of UniProt Q9UQM7 (whole entry, looked up): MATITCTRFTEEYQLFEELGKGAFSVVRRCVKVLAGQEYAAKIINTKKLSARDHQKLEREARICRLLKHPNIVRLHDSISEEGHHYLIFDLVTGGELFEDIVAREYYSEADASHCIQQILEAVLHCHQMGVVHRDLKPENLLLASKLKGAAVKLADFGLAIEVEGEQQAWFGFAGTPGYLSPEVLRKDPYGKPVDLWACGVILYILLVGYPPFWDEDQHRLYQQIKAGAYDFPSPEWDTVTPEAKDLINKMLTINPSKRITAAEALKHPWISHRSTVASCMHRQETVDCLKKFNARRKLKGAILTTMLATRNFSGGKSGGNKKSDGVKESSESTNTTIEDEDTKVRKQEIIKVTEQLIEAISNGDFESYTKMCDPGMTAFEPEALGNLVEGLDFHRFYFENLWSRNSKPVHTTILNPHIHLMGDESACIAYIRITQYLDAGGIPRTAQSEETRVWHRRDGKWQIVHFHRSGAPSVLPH
Compound | inhibition
CSc1ccc(C(=O)c2[nH]c(=O)[nH]c2C)cc1 | 1%
O=c1ccc2ccc(O)c(O)c2o1 | -4%
O=C(O)c1ccncc1 | -17%
O=C[C@H](O)[C@@H](O)[C@@H](CO)O[C@@H]1OC[C@@H](O)[C@H](O)[C@H]1O | 1%
NCCC[C@@H](N)C(=O)O | 13%
O=c1cc(-c2ccc(O)c(O)c2)oc2cc(O)c([C@@H]3O[C@H](CO)[C@@H](O)[C@H](O)[C@H]3O)c(O)c12 | -33%

Sample 2 — effect on: enzyme activity; concentration: 5 µM; reference: untreated control
Compound: O=C(Nc1cnn(-c2csc(C(=O)NC3COC3)c2)c1)Nc1ccccc1Cl
target | remaining activity [%]
ERBB2 (Homo sapiens, UniProt P04626) | 101
CAMK2A (Homo sapiens, UniProt Q9UQM7) | 99.6
PKN2 (Homo sapiens, UniProt Q16513) | 109
MAP3K21 (Homo sapiens, UniProt Q5TCX8) | 92.5
HIPK3 (Homo sapiens, UniProt Q9H422) | 96.9
MAPKAPK2 (Homo sapiens, UniProt P49137) | 95.8
Protein kinase C beta type, isoform beta-II (PRKCB, Homo sapiens, UniProt P05771) | 102
MAPK14 (Homo sapiens, UniProt Q16539) | 141

Sample 3 — effect on: enzyme activity; mode: inhibitor; concentration: 0.5 µM; reference: control
Target: Serine/threonine-protein kinase pim-3 (PIM3, Homo sapiens, UniProt Q86V86)
Compound | remaining activity
O=c1cc(N2CCOCC2)oc2c(-c3ccccc3)cccc12 | 88.5%
CN(C)S(=O)(=O)c1ccc2c(c1)/C(=C/c1cc3c([nH]1)CCCC3)C(=O)N2 | 117%
CCCNC(=O)Nc1ccc(Oc2ncnc3cc(OC)c(OC)cc23)cc1Cl | 81.3%
Cc1ccc(S(=O)(=O)/C=C/C#N)cc1 | 93.6%
COc1ccc2c(c1)c(C1=C(c3c[nH]c4ccccc34)C(=O)NC1=O)cn2CCCN(C)C | 5.01%
O=C(c1cc2cc(O)ccc2[nH]1)c1cc2cc(O)ccc2[nH]1 | 98.9%
CN1CCN(c2ccc3nc(-c4c(N)c5c(F)cccc5[nH]c4=O)[nH]c3c2)CC1 | 95.6%
O=Nc1c(-c2c(O)[nH]c3cc(Br)ccc23)[nH]c2ccccc12 | 73.2%
c1ccc(-c2n[nH]c3c2oc2ccccc23)cc1 | 117%
N#Cc1cnc2cnc(NCc3cccnc3)cc2c1Nc1ccc(F)c(Cl)c1 | 85%
CCCCc1c(-c2ccc(OC)cc2)[nH]c2nccnc12 | 90.9%
COc1ccc(COc2ccc(Cc3cnc(N)nc3N)cc2OC)cc1 | 95.9%
O=C1NC(=O)c2c1c1c3ccccc3[nH]c1c1[nH]c3cc(Br)ccc3c21 | 4.69%
O=C1Nc2ccccc2/C1=C\c1c(Cl)[nH]c2ccccc12 | 100%
Oc1cccc(-c2nc(N3CCOCC3)c3oc4ncccc4c3n2)c1 | 104%
Cc1cc(Nc2cc(N3CCN(C)CC3)nc(Sc3ccc(NC(=O)C4CC4)cc3)n2)[nH]n1 | 101%
O=C1Nc2ccc(Br)cc2/C1=C/c1cc2c([nH]1)CCCC2 | 87.5%
c1ccc2c(-c3ccncc3)c[nH]c2c1 | 103%
COc1cccc(-c2cc(=O)c3ccccc3o2)c1N | 90.9%
O=C1Cc2c([nH]c3ccc(Br)cc23)-c2ccccc2N1 | 84.6%

Sample 4 — effect on: cell-free assay; method: competition with immobilised ligand; concentration: 0.1 µM
SMILES: CCOC(=O)c1cc2cc(-c3cc(C(=O)NCc4ccc(C(=O)O)cc4)nn3C)ccc2[nH]1
target | remaining binding
MAPK15 (Homo sapiens, UniProt Q8TD08) | 100%
MAP2K1 (Homo sapiens, UniProt Q02750) | 90%
Ribosomal protein S6 kinase alpha-3, N-terminal kinase domain (RPS6KA3, Homo sapiens, UniProt P51812) | 100%
SIK3 (Homo sapiens, UniProt Q9Y2K2) | 100%
FLT3 (Homo sapiens, UniProt P36888, D835H) | 100%
CDK13 (Homo sapiens, UniProt Q14004) | 83%
TNIK (Homo sapiens, UniProt Q9UKE5) | 100%
MAP4K3 (Homo sapiens, UniProt Q8IVH8) | 89%
PIM3 (Homo sapiens, UniProt Q86V86) | 99%
CDK11B (Homo sapiens, UniProt P21127) | 98%
CLK1 (Homo sapiens, UniProt P49759) | 100%
MARK4 (Homo sapiens, UniProt Q96L34) | 79%
MAP3K14 (Homo sapiens, UniProt Q99558) | 58%
Tyrosine-protein kinase ABL1, non-phosphorylated (ABL1, Homo sapiens, UniProt P00519) | 81%
MYLK4 (Homo sapiens, UniProt Q86YV6) | 100%
FLT3 (Homo sapiens, UniProt P36888, R834Q) | 78%
STK10 (Homo sapiens, UniProt O94804) | 100%
PRPF4B (Homo sapiens, UniProt Q13523) | 89%
MTOR (Homo sapiens, UniProt P42345) | 100%

For quick reference, copied from above (sample 3):
Compound | remaining activity
N#Cc1cnc2cnc(NCc3cccnc3)cc2c1Nc1ccc(F)c(Cl)c1 | 85%
CCCCc1c(-c2ccc(OC)cc2)[nH]c2nccnc12 | 90.9%
COc1ccc(COc2ccc(Cc3cnc(N)nc3N)cc2OC)cc1 | 95.9%
O=C1NC(=O)c2c1c1c3ccccc3[nH]c1c1[nH]c3cc(Br)ccc3c21 | 4.69%
O=C1Nc2ccccc2/C1=C\c1c(Cl)[nH]c2ccccc12 | 100%
Oc1cccc(-c2nc(N3CCOCC3)c3oc4ncccc4c3n2)c1 | 104%
Cc1cc(Nc2cc(N3CCN(C)CC3)nc(Sc3ccc(NC(=O)C4CC4)cc3)n2)[nH]n1 | 101%
